Measured values gathered from unrelated publications.
Compare with care: the assays were run in different laboratories. Numbers after ± are the reported error.
Target: Cytochrome P450 1A2 (CYP1A2, Homo sapiens, UniProt P05177)
Residues used in one study (P05177 2-516, limits assumed): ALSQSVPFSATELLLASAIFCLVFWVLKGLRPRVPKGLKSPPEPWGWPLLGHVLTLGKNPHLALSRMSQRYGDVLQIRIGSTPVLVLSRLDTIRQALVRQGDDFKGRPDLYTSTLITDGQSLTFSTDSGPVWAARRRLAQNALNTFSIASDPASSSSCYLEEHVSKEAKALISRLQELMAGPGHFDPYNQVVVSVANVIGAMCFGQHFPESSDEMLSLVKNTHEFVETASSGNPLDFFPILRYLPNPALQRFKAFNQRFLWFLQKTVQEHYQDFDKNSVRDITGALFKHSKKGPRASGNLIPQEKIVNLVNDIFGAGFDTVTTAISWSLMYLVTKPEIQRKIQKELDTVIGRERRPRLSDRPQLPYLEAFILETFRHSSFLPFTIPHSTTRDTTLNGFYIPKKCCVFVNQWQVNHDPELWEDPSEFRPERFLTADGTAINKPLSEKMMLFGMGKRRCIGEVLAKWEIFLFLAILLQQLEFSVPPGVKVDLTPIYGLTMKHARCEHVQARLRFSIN

C=CC(=O)Nc1cc(Nc2nccc(-c3cn(C)c4ccccc34)n2)c(OCC(F)(F)F)nc1N(C)CCN(C)C  intrinsic clearance (substrate depletion; recombinant human CYP; 1 µM): 0.45 µL/min/pmol
CC(C)=CCc1c(O)cc2c(c1O)C(=O)C[C@@H](c1ccc(O)cc1)O2  inhibition (10 µM, pH 7.4): 21.4 ± 0.8%
OCc1ccc(-c2nn(Cc3ccccc3)c3ccccc23)o1  half-life (substrate; recombinant human enzyme): 42 s
COc1cc(O)c(CC=C(C)C)c2c1C(=O)CC(c1ccc(O)cc1)O2 (stereo not shown)  inhibition (enzyme activity, inhibitor; human liver microsomes; 1 µM, pH 7.4, added: phenacetin): < 10%
N#C[C@H](C[C@@H]1CCCNC1=O)NC(=O)[C@H](CC1CC1)NC(=O)c1cc2cccc(Cl)c2[nH]1  fraction metabolised (ISEF abundance scaling; 2 µM, pH 7.4): < 1%
Cc1cc(C)c(CNC(=O)c2cc(Cl)c3c(c2C)O[C@@](C)([C@H]2CC[C@H](N(C)C)CC2)O3)c(=O)[nH]1  CLint (recombinant human enzyme; 0 and 30 min, added: enzyme 100 pmol/mL): 0.00135 µL/min/pmol
C[C@@H](c1ccc2nccn2c1)n1nnc2ncc(-c3cnn(C)c3)nc21  IC50 (inhibitor; pooled human liver microsomes; reversible inhibition): > 100 µM
O=c1c(O)c(-c2ccccc2)oc2ccccc12  remaining activity (LC-MS/MS, item: acetaminophen; human liver microsomes; 10 µM, 30 min, pH 7.4, added: 50 µM phenacetin): 11.5 ± 0.23%
Cn1c(=O)c2c(ncn2C)n(C)c1=O  AUC(0-t) (item: paraxanthine; human, plasma; oral, 50 mg caffeine, day 14, cocktail with binimetinib and encorafenib): 7520 ng·h/mL
COc1ccc2oc(-c3ccccc3)c(O)c(=O)c2c1  remaining activity (LC-MS/MS, item: acetaminophen; human liver microsomes; 10 µM, 30 min, pH 7.4, added: 50 µM phenacetin): 17.33 ± 0.17%
CC(C)Cn1cnc2c(N)nc3ccccc3c21  remaining compound (substrate, LC-MS; recombinant microsomes; 0.5 µM, 15 min, pH 7.4, 37 °C; baseline: control): ~32%
CC(C)=CCc1c(O)cc(O)c2c1O[C@H](c1ccc(O)cc1)CC2=O  inhibition (10 µM, pH 7.4): > 88%
COc1ccc2oc(-c3ccccc3)c(OC)c(=O)c2c1  remaining activity (LC-MS/MS, item: acetaminophen; human liver microsomes; 10 µM, 30 min, pH 7.4, added: 50 µM phenacetin): 22.35 ± 0.21%
Cn1c(=O)c2c(ncn2C)n(C)c1=O  Vd/F (human, plasma; oral, 200 mg, day 1, alone, arithmetic mean): 43.1 L
O=c1c(O)c(-c2ccccc2)oc2ccc(O)cc12  remaining activity (LC-MS/MS, item: acetaminophen; human liver microsomes; 10 µM, 30 min, pH 7.4, added: 50 µM phenacetin): 7.62 ± 0.26%
COc1cc(O)c(CC=C(C)C)c(O)c1C(=O)/C=C/c1ccc(O)cc1  inhibition (enzyme activity, inhibitor; human liver microsomes; 10 µM, pH 7.4, added: phenacetin): 11.8 ± 1.1%

Repeated from above:
OCc1ccc(-c2nn(Cc3ccccc3)c3ccccc23)o1  half-life (substrate; recombinant human enzyme): 42 s
COc1cc(O)c(CC=C(C)C)c2c1C(=O)CC(c1ccc(O)cc1)O2 (stereo not shown)  inhibition (enzyme activity, inhibitor; human liver microsomes; 1 µM, pH 7.4, added: phenacetin): < 10%
